Measured values pooled from the literature.
Each line is one published result; not all experiments were run side by side. Numbers after ± are the reported error.
Organism: Salmonella typhimurium

Under “revertant colonies per plate”, `CC(C)N(C)N=O` is recorded as 9 ± 5 (mutagenicity, Ames plate incorporation; TA1537; 2500 µg/plate, 3 d, without S9, methanol).
`O=[N+]([O-])c1ccc(N2CCC(NCCC(O)c3ccc(F)c4ccccc34)CC2)c(C(F)(F)F)c1` (stereo not shown) gave a survival of 50% (SOS/umu test; TA1535/pSK1002; 0.008 mg/mL, 4 h, without S9, full range).
`Cc1cc(C(=O)NC(C)(C)COc2cccc3c2C(N)=NS(=O)(=O)N3)cc(C)n1` has a revertant ratio of 0.8 (Ames test, confirmatory; TA98; 5000 µg/plate, with: rat liver S9; relative to: solvent control).
`O=[N+]([O-])c1ccc(NC2CCNCC2)c(C(F)(F)F)c1` gave an induction factor of 0.6 (SOS response, SOS/umu test; TA1535/pSK1002, TGA medium; 0.001 mg/mL, 4 h, with: rat liver S9; relative to: untreated).
With `N#C[C@@]1(n2ccc(N)nc2=O)O[C@H](CO)[C@@H](O)[C@H]1O` the viability was 85% (TA98; 50 µM, without S9).
`COc1cccc(-c2n[nH]c(SCc3ccccn3)n2)c1OC`: “revertant colonies per plate” 18 (Ames test, plate incorporation; TA1537; 0.25 mg/plate, with rat liver S9).
`CN(CC(C)(C)C)N=O` — result for “revertant colonies per plate”: 45 ± 10 (mutagenicity, Ames plate incorporation; TA1535; 5000 µg/plate, without S9, methanol).
For `OC(CCN1CC=C(c2ccc(F)cc2)CC1)c1ccc(F)c2ccccc12` (stereo not shown), the survival was 91.1% (SOS/umu test; TA1535/pSK1002; 0.004 mg/mL, 4 h, with S9, lower range).
`CC(=O)N1CCC(C(=O)N2CCN3C(=O)c4cc(-c5ccccc5)ccc4NC(=O)C3C2)CC1` (stereo not shown): “revertants per plate” 93 (TA100; 158 µg/plate, without S9).
Under “revertant colonies per plate”, `CNC(=O)c1c(N(C)N=O)ncn1C` is recorded as 193 ± 20 (plate incorporation; TA100, water; 1500 µg/plate, without S9).

A few entries again:
Under “revertant colonies per plate”, `CNC(=O)c1c(N(C)N=O)ncn1C` is recorded as 193 ± 20 (plate incorporation; TA100, water; 1500 µg/plate, without S9).
